Published values of several laboratories.
Each line is one published result; not all experiments were run side by side. Several values in a cell are separate wells, animals, samples, runs or records. Numbers after ± are the reported error.

Compound	tested on	assay	system	setting	scale	endpoint	value
CN(C)C(=O)CNC(=O)c1ccc([C@H]2[C@@H](F)[C@@H](F)C[C@@H](F)[C@H]2F)cc1		hepatocyte stability	cryopreserved mouse hepatocytes	1 µM		hepatic clearance	36 mL/min/kg
COC1OC(C)C(OC2OC(C)C(O)C(OC3OC(C)C(OC4OC(C)C(O)C(OC5OC(C)C(OC6OC(C)C(O)C(OS(=O)(=O)O)C6OS(=O)(=O)O)C(OS(=O)(=O)O)C5OS(=O)(=O)O)C4OS(=O)(=O)O)C(OS(=O)(=O)O)C3OS(=O)(=O)O)C2OS(=O)(=O)O)C(OS(=O)(=O)O)C1OS(=O)(=O)O (stereo not shown)			human plasma	128 µg/mL		activated partial thromboplastin time	118 ± 1.8 s
COC1CN([C@H]2CC[C@H]([C@@]3(C)Oc4c(Cl)cc(C(=O)NCc5c(SC)cc(C)[nH]c5=O)c(C)c4O3)CC2)C1		RNA-seq, item: SPATA6 mouse homolog	mouse, HT-1376 xenograft, whole blood	dose not given	relative to: vehicle	log2 fold change	0.834
O=C(N/N=C/c1cc[n+](CC2CC2)c2ccccc12)c1ccc2ccc(C(=O)N/N=C/c3cc[n+](CC4CC4)c4ccccc34)nc2n1	22CTA telomeric G4-DNA antiparallel	FRET melting		1 µM, K10 buffer, DNA 0.2 µM, added: ds26 10 µM		ΔTm	18.8 ± 0.3 °C
COc1cc(O)ccc1CCC(c1ccc(O)cc1)c1cc2c(c(C)c1O)OC(c1ccc(O)cc1)CC2 (mixture of isomers)		item: 12-HETE	human whole blood	3 µM, added: Escherichia coli		amount	33000 ± 4720 pg/mL blood
COC1OC(C)C(OS(=O)(=O)O)C(OC2OC(C)C(OS(=O)(=O)O)C(OC3OC(C)C(OS(=O)(=O)O)C(OC4OC(C)C(OS(=O)(=O)O)C(OC5OC(C)C(OS(=O)(=O)O)C(OC6OC(C)C(OS(=O)(=O)O)C(OC7OC(C)C(OS(=O)(=O)O)C(OC8OC(C)C(OS(=O)(=O)O)C(OS(=O)(=O)O)C8OS(=O)(=O)O)C7OS(=O)(=O)O)C6OS(=O)(=O)O)C5OS(=O)(=O)O)C4OS(=O)(=O)O)C3OS(=O)(=O)O)C2OS(=O)(=O)O)C1OS(=O)(=O)O (stereo not shown)			human plasma	16 µg/mL		activated partial thromboplastin time	74.5 s and 75.9 s and 76 s
NC[C@@H](C(=O)Nc1ccc(-c2cn[nH]c2)cc1)c1ccccc1		tonometry	NZW rabbit, magnetic bead-induced ocular hypertension	ocular, 0.03%, 30 h		IOP	30.3 mmHg
CNS(=O)(=O)Nc1nccc(Cc2c(C)c3ccc(Oc4ncccc4F)cc3oc2=O)c1F	JEG-3	cell viability		7 days		IC50	> 1000 nM
CN1CCC(c2ccc(-c3ccc([C@H]4[C@@H](F)[C@@H](F)C[C@@H](F)[C@H]4F)cc3)cn2)CC1		hepatocyte stability	cryopreserved rat hepatocytes	1 µM		hepatic clearance	33 mL/min/kg
COCC1CN(C2CCN(c3cc(OC)c(Nc4ncc(Br)c(Nc5ccc6c(c5P(C)(C)=O)OCCO6)n4)cc3C)CC2)C1		RECIST 1.1	advanced EGFR-mutant NSCLC patients	60 mg once daily		disease control rate	0%
COC1OC(C)C(OC2OC(C)C(OS(=O)(=O)O)C(OC3OC(C)C(OC4OC(C)C(OS(=O)(=O)O)C(OC5OC(C)C(OC6OC(C)C(OS(=O)(=O)O)C(OS(=O)(=O)O)C6O)C(OS(=O)(=O)O)C5O)C4O)C(OS(=O)(=O)O)C3O)C2O)C(OS(=O)(=O)O)C1O (stereo not shown)			human plasma	128 µg/mL		activated partial thromboplastin time	37.6 ± 0.4 s
Nc1nc2cc(CC[C@H]3C[C@@H](n4ccc5c(N)ncnc54)[C@H](O)[C@@H]3O)ccc2cc1Br			NCI-H520 xenograft, mouse	1.0 mg/kg/day, day 27		%ΔTGI	60.7%
Cc1[nH]nc2c1N=C(c1ccccc1Cl)c1cnc(N3CCOCC3)cc1N2			mouse sample J TNBC PDX	oral, 15 mg/kg, 120 h, 5 days per week		tumour growth inhibition	71%
